Measured values gathered from unrelated publications.
Each numbered part is a random draw from the data of one study; scales do not carry over between parts.

Series 1
Target: Replicase polyprotein 1ab, nsp13 helicase (rep, Severe acute respiratory syndrome coronavirus 2, UniProt P0DTD1)
Action: inhibitor
Concentration: 20 µM
Endpoint: inhibition
CC1(C)NC(=O)N(c2ccc([N+](=O)[O-])c(C(F)(F)F)c2)C1=O: -3.23%
CC(/C=C1\SC(=S)N(CC(=O)O)C1=O)=C\c1ccccc1: -7.07%
Cc1[nH]c2ccc(Cl)cc2c1C1=CCNCC1: -5.66%
CC1=C(/C=C/C(=C/C=C/C(C)=C/C(=O)O)c2ccc(C)cc2)C(C)(C)CCC1: 26.5%
N=C(N)NN: 5.81%
Cc1cccc(NC(=O)N[C@@H]2N=C(c3ccccc3)c3ccccc3N(C)C2=O)c1: 1.67%
Cc1c(C(=O)Nc2ccc(N3CCC(N4CCOCC4)CC3)c(C#N)c2)cnn1-c1ccc(Cl)cc1: 9.01%
CC(C)C(C(=O)Nc1nccs1)c1ccc(Cl)cc1 (centres unmarked): 1.57%
CC[C@@]1([C@H]2O[C@H]([C@H]3O[C@@](O)(CO)[C@H](C)C[C@@H]3C)C[C@H]2C)CC[C@H]([C@@]2(C)CC[C@]3(C[C@H](O)[C@@H](C)[C@@H]([C@H](C)[C@H](OC)[C@@H](C)C(=O)O)O3)O2)O1: 8%
CC(=O)NS(=O)(=O)c1ccc(NC(=O)c2ccccc2C(=O)O)cc1: -3.21%
CN(C)c1cc(NC(=O)CNC(C)(C)C)c(O)c2c1C[C@H]1C[C@H]3[C@H](N(C)C)C(O)=C(C(N)=O)C(=O)[C@@]3(O)C(O)=C1C2=O: 12.7%
Cc1c(-c2ccc(O)cc2)n(Cc2ccc(OCCN3CCCCCC3)cc2)c2ccc(O)cc12: 13.8%
CS(=O)(=O)Nc1ccc(Cc2noc(-c3ccc4[nH]cc(CCN)c4c3)n2)cc1: 8.96%
OCCn1cc(-c2cnc3nnn(Cc4ccc5ncccc5c4)c3n2)cn1: 9.78%
Cc1ncccc1OC[C@@H]1CCCN1: -2.61%
CC(C)C(=O)SCCCCC[C@H](NC(=O)OC(C)(C)C)C(=O)NC12CC3CC(CC(C3)C1)C2: 2.82%
C=C1CCN([C@H](C)[C@](O)(Cn2cncn2)c2ccc(F)cc2F)CC1: 3%
O=C(CN1CCN(C(=O)c2ccco2)CC1)Nc1cc(C(F)(F)F)ccc1Cl: 0.88%
NC(=O)N[C@@H](CCC(=O)O)C(=O)O: 4.37%
NC(=O)c1cccc2cn(-c3ccc([C@@H]4CCCNC4)cc3)nc12: 9.53%
N[C@@H](CC(=O)Nc1ccc(Oc2cc(F)c(F)cc2Br)cc1)C(=O)O: 8.1%
COC(=O)c1ccccc1O: 3.19%
CCOC(=O)[C@H](C)C[C@@H](Cc1ccc(-c2ccccc2)cc1)NC(=O)CCC(=O)O: 6.25%
C[C@@H]1C[C@H]2[C@@H]3CCC4=CC(=O)C=C[C@]4(C)[C@@]3(Cl)[C@@H](O)C[C@]2(C)[C@@]1(O)C(=O)CCl: 1.66%
C1=C2CCCN[C@H]2[C@@H]2C[C@H]1[C@H]1CCCCN1C2: 4.1%

Series 2
Cell line: HEK-293T/ACE2
Effect on: pseudovirus infection
Organism: VSV pseudotyped with SARS-CoV-2 spike
Concentration: concentration not given
Baseline: vehicle-treated
Endpoint: GFP-positive cells
CC[C@H](Nc1ncnc2[nH]cnc12)c1nc2cccc(F)c2c(=O)n1-c1ccccc1: 68.2%
CCN[C@@H]1C[C@H](N)[C@@H](O[C@H]2OC(CN)=CC[C@H]2N)[C@H](O)[C@H]1O[C@H]1OC[C@](C)(O)[C@H](NC)[C@H]1O.CCN[C@@H]1C[C@H](N)[C@@H](O[C@H]2OC(CN)=CC[C@H]2N)[C@H](O)[C@H]1O[C@H]1OC[C@](C)(O)[C@H](NC)[C@H]1O.O=S(=O)(O)O.O=S(=O)(O)O.O=S(=O)(O)O.O=S(=O)(O)O.O=S(=O)(O)O: 82.9%
CCC(=O)O[C@@H](O[P@](=O)(CCCCc1ccccc1)CC(=O)N1C[C@H](C2CCCCC2)C[C@H]1C(=O)[O-])C(C)C.[Na+]: 117%
C[C@@H](O)[C@@H]1NC(=O)[C@H](CCCCN)NC(=O)[C@@H](Cc2c[nH]c3ccccc23)NC(=O)[C@H](Cc2ccccc2)NC(=O)[C@@H](NC(=O)[C@H](N)Cc2ccccc2)CSSC[C@@H](C(=O)N[C@H](CO)[C@@H](C)O)NC1=O: 83.8%
COc1cc2c(cc1OC)CC(=O)N(CCCN(C)C[C@H]1Cc3cc(OC)c(OC)cc31)CC2.Cl: 81.2%

Series 3
Target: Interferon regulatory factor 5, full length, phosphomimetic (IRF5, Homo sapiens, UniProt Q13568-2, residues 1-514, S451D/S453D/S456D/S462D)
Method: protein-binding microarray
Form: double-stranded DNA, one strand shown
Medium: in vitro
Concentration: 940 nM top
Notes: 60-bp whole probe
Added: salmon DNA 0.4 mg/ml
Baseline: random background probes
Direction: higher = stronger binding
Endpoint: fitted relative affinity
Shared flanks, not repeated: GCCTAGCAC … GTCTTGATTCGCTTGACGCTGCTG
TTAAGACTGGACACTGGGTTAGTGCTA: -0.173 z-score
GACGAACTGGGTTTCGAGACGTGCTAG: 2.49 z-score
TTAGGACTGGGTCCCGGTTAGTGCTAG: -0.253 z-score
TTAGAACTGAGTCTCTATTAGTGCTAG: 0.0483 z-score
GACGAACTGTGGACTGGAGACGTGCTA: -0.536 z-score
TTAGGTATCGGGTATCGTTTAGTGCTA: 6.62 z-score
TTAGGTTTCTGGTATCGGTTAGTGCTA: 7.28 z-score
TCATTTTTCATTTTGTTACTGTGCTAG: 1.73 z-score

Series 4
Target: Replicase polyprotein 1ab, main protease (rep, Severe acute respiratory syndrome coronavirus 2, UniProt P0DTD1)
Effect on: enzyme activity
Action: inhibitor
Concentration: 20 µM
Notes: primary screen
Endpoint: inhibition
COC(=O)CC[C@H](NC(=O)[C@H](CC(=O)OC)NC(=O)OCc1ccccc1)C(=O)N[C@H](C(=O)N[C@@H](CC(=O)OC)C(=O)CF)C(C)C: 100%
CCCCc1nc(C)c(CC(=S)N(C)C)c(=O)n1Cc1ccc(-c2ccccc2-c2nnn[nH]2)cc1: 40%
CC[C@H](CO)Nc1nc(NCc2ccc(-c3ccccn3)cc2)c2ncn(C(C)C)c2n1: 99.5%
Oc1c(I)cc(I)c(O)c1I: 99.7%

Series 5
Target: Histone acetyltransferase KAT6A, winged helix 2, GST fusion (KAT6A, Homo sapiens, UniProt Q92794, residues 85-181)
Method: protein binding microarray
Form: double-stranded DNA, one strand shown
Medium: in vitro
Concentration: not given
Notes: 8-mer, flanks averaged, mean of 2 arrays, mostly near background
Baseline: not given
Direction: higher = stronger binding
Endpoint: E-score
Target sequence (chain): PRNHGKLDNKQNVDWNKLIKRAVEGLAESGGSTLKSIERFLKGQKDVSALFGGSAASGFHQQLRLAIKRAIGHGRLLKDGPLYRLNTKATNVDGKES
CCTACGTC: -0.153
ACAATAAA: -0.0525
CATGTCCA: -0.106
CCTCCCCA: 0.0675
AGCCTTGG: -0.155
CCCCCGCA: 0.0787
GCATGGCC: 0.0783
ACTGCCCT: 0.0176

Repeated from above (series 1):
CC(C)C(=O)SCCCCC[C@H](NC(=O)OC(C)(C)C)C(=O)NC12CC3CC(CC(C3)C1)C2: 2.82%
CC1(C)NC(=O)N(c2ccc([N+](=O)[O-])c(C(F)(F)F)c2)C1=O: -3.23%
NC(=O)N[C@@H](CCC(=O)O)C(=O)O: 4.37%
CC(C)C(C(=O)Nc1nccs1)c1ccc(Cl)cc1 (centres unmarked): 1.57%
NC(=O)c1cccc2cn(-c3ccc([C@@H]4CCCNC4)cc3)nc12: 9.53%
CCOC(=O)[C@H](C)C[C@@H](Cc1ccc(-c2ccccc2)cc1)NC(=O)CCC(=O)O: 6.25%
Cc1c(-c2ccc(O)cc2)n(Cc2ccc(OCCN3CCCCCC3)cc2)c2ccc(O)cc12: 13.8%
